Results collected from several papers.
Lines come from different studies, so protocols differ. Numbers after ± are the reported error.
UCHL1: Ubiquitin carboxyl-terminal hydrolase isozyme L1 (UCHL1, Homo sapiens, UniProt P09936)
Chain of UniProt P09936 (whole entry, looked up): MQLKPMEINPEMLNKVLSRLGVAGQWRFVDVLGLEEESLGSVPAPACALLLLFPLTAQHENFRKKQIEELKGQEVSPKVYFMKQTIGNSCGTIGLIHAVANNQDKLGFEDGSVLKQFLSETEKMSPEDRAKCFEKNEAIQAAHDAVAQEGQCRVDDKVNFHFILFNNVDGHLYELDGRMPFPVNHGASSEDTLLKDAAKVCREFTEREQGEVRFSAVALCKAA
Chain of UniProt Q07794 (whole entry, looked up): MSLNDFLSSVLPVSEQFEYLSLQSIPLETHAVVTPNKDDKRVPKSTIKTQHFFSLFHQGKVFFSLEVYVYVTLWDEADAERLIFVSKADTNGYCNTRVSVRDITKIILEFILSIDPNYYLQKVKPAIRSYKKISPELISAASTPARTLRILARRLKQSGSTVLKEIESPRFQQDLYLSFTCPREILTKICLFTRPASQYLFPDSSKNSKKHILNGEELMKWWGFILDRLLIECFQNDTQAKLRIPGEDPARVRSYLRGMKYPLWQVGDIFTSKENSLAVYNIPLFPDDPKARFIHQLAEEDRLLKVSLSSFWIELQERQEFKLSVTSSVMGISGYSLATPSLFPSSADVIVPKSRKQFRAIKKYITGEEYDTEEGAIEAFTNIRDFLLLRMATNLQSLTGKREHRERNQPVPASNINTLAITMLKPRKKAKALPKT

Compound | target or system | assay | test system | setting | how to read | endpoint | value
CC(C)(O)c1coc(S(=O)(=O)NC(=O)Nc2c3c(cc4c2CCC4)CCC3)c1 | – | – | male Sprague-Dawley rats, ankle joint | oral, 2 mg/kg, 2 h | – | concentration | 9710 ± 6340 ng/g
O=C(CCl)NC1CCN(C(=O)c2ccco2)c2ccccc21 (stereo not drawn) | UCHL1 | covalent, intact protein LC-MS | – | 12.5 µM | – | labelling | 26.8%
CN(C(=O)n1cnc(-c2cccnc2)c1)[C@H]1CC[C@H](O)CC1 | – | – | Wistar rat, medulla oblongata | oral, 10 mg/kg/day of BIA 10-2474, 48 h, repeated 5 days | – | concentration | 14.4 ± 1.2 ng/g
CC(=O)N(Cc1cccnc1)c1cccc(-c2nc3ccccc3s2)c1 | Trypanosoma cruzi | reporter translation, Renilla luciferase mRNA translation | cell-free extract | 40 µM | relative to: DMSO | inhibition | 1.5%
CN(C(=O)n1cnc(-c2ccc[n+]([O-])c2)c1)[C@H]1CC[C@H](O)CC1 | – | – | Wistar rat, midbrain | oral, 10 mg/kg of BIA 10-2474, 1 h, single dose | – | concentration | 15.3 ± 1.4 ng/g
COc1nc(-c2cc(C)c(N[C@@H](C)c3cc(F)cc(F)c3)nn2)ccc1-n1cnc(C)c1 | – | – | rat Sprague-Dawley male, brain | oral, 25 mg/kg daily for 9 days, 4 h after dose | – | concentration | 3950 ng/g
O=C(CSC1CC(=O)N(c2ccc(Br)cc2)C1=O)Nc1ccc(Cl)cc1 (stereo not drawn) | Histone acetyltransferase RTT109, with Vps75 (Saccharomyces cerevisiae, UniProt Q07794) | enzyme activity, inhibitor, HTS, CPM-based, dose response | – | – | – | IC50 | > 125 µM
O=C(CCl)NC(Cc1ccccc1)c1ccccc1F (stereo not drawn) | UCHL1 | covalent, intact protein LC-MS | – | 12.5 µM | – | labelling | 17.7%
Cc1ccc(C(=O)N(CCCN)[C@@H](c2oc3cc(Cl)ccc3c(=O)c2Cc2ccccc2)C(C)C)cc1 | Toxoplasma gondii | parasite growth | HFF, bradyzoite, glutamine-induced | – | – | EC50 | 4.05 µM
COC(=O)[C@@H]1[C@H]2C[C@H]3c4[nH]c5ccccc5c4CCN3C[C@@H]2CC[C@@H]1O | – | – | rat, thoracic spinal cord | intraperitoneal, 1 mg/kg, 1.5 h | – | concentration | 0.45 µM
O=C(N[C@H](Cc1c[nH]c2ccccc12)C(=O)Nc1ccncc1)c1ccc(-c2ccc(F)c(C(F)(F)F)c2)cc1F | – | – | Swiss Webster mouse, female, heart | oral, 50 mg/kg, 8 h, 20% HPβCD vehicle | – | concentration | 10.4 µM
Cc1nccc2c1c(=O)n(C)c1cc(OC[C@@H](N)CC(C)C)c(C#N)cc21 | – | – | rat, plasma | intrathecal, 0.3 µg, 30 min | – | concentration | 0.0033 µM
O=C(N[C@H](Cc1c[nH]c2ccccc12)C(=O)Nc1ccncc1)c1ccc(N2CCN(c3ccc(F)cc3F)CC2)cc1F | – | – | Swiss Webster mouse, female, intestine | oral, 50 mg/kg, 2 h, 20% HPβCD vehicle | – | concentration | 72 µM
Clc1cccc(Cl)c1N=C1NCCN1 | – | – | rat, lumbar spinal cord | intrathecal, 3 µg, 30 min | – | concentration | 3.21 µM
O=C(N[C@H](Cc1c[nH]c2ccccc12)C(=O)Nc1ccncc1)c1ccc(-c2ccc(F)c(Cl)c2)cc1F | – | – | Swiss Webster mouse, female, plasma | oral, 50 mg/kg, 2 h, 20% Kolliphor vehicle | – | concentration | 8.9 µM
